Measurements of several laboratories.
Lines come from different studies, so protocols differ. ± marks the error that the study gave.
Sequence of UniProt Q9UF33 (whole entry, looked up): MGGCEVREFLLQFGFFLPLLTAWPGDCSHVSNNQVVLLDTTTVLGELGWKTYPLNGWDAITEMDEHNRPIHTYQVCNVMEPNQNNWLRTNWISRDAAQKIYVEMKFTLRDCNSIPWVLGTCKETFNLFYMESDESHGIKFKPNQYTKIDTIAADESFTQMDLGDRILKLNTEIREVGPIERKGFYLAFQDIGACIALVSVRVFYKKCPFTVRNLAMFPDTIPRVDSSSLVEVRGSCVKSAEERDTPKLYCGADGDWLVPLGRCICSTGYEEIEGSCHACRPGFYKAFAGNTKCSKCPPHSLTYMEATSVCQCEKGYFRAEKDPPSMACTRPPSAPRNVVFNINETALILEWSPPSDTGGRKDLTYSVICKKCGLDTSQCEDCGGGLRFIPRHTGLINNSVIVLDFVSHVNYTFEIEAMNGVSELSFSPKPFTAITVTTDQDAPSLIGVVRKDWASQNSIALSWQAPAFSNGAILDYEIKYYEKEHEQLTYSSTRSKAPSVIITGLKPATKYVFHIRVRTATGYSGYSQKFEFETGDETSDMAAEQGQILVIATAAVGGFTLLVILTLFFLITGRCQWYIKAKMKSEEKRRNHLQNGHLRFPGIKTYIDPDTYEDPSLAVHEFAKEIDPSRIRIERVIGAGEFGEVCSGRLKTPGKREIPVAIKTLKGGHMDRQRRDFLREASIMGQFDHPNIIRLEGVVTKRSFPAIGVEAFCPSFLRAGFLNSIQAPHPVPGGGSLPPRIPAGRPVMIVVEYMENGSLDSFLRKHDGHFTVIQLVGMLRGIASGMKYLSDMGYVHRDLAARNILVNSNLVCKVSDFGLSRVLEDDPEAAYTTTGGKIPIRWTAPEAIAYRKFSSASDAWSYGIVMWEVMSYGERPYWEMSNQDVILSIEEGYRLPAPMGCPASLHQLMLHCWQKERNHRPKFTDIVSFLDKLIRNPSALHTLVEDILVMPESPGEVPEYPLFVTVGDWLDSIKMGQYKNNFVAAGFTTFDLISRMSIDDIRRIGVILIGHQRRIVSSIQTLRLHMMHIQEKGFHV
Sequence of UniProt Q8IXJ6 (whole entry, looked up): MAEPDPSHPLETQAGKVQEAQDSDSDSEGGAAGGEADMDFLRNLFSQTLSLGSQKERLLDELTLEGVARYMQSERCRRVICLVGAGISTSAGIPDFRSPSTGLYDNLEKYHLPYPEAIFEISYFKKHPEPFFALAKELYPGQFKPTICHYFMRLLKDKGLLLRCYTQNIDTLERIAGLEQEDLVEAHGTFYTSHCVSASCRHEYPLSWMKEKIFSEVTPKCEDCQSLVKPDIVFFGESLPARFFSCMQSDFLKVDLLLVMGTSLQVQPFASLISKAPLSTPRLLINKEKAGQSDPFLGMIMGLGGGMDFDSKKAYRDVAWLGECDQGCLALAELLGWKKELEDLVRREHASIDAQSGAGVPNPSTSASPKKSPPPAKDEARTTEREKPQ
Sequence of UniProt Q9H300 (whole entry, looked up): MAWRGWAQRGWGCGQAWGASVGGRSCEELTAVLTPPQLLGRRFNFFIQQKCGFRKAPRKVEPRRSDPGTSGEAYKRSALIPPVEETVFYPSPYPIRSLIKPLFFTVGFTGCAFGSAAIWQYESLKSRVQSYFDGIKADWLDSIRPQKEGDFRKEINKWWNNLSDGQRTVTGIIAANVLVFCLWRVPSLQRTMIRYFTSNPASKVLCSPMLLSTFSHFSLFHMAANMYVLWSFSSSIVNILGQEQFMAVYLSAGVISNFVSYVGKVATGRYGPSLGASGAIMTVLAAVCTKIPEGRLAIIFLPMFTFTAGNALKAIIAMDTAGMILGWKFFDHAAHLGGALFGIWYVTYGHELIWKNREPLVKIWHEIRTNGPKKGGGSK

`COc1ccc(N2C(=O)N(c3c(C)cccc3Cl)Cc3cnc(Nc4ccc(C5CCN(C)CC5)cc4OC)nc32)nc1` has an inhibition of 55% (Ephrin type-A receptor 6 (EPHA6, Homo sapiens, UniProt Q9UF33); kinase activity; 0.5 µM).
For `CC[C@H](C)[C@H](NC(=O)[C@H](Cc1ccccc1)NC(=O)[C@H](CCC(=O)O)NC(=O)[C@H](CCCNC(=N)N)NC(=O)[C@H](C)NC(=O)[C@H](C)NC(=O)[C@H](CCC(N)=O)NC(=O)[C@H](CCC(=O)O)NC(=O)[C@H](CCC(=O)O)NC(=O)[C@H](CC(C)C)NC(=O)[C@H](Cc1ccc(O)cc1)NC(=O)[C@H](CO)NC(=O)[C@H](CO)NC(=O)[C@@H](NC(=O)[C@H](CC(=O)O)NC(=O)[C@H](CO)NC(=O)[C@@H](NC(=O)[C@H](Cc1ccccc1)NC(=O)[C@@H](NC(=O)CNC(=O)[C@H](CCC(=O)O)NC(=O)[C@H](C)NC(=O)CCc1c[nH]cn1)[C@@H](C)O)[C@@H](C)O)C(C)C)C(=O)N[C@@H](C)C(=O)N[C@@H](Cc1c[nH]c2ccccc12)C(=O)N[C@@H](CC(C)C)C(=O)N[C@H](C(=O)N[C@@H](CCCNC(=N)N)C(=O)NCC(=O)N[C@@H](CCCNC(=N)N)C(=O)N[C@@H](CCCCNC(=O)COCCOCCNC(=O)COCCOCCNC(=O)CC[C@H](NC(=O)CCCCCCCCCCCCCCCCC(=O)O)C(=O)O)C(=O)NCC(=O)NCC(=O)N[C@@H](CO)C(=O)N[C@@H](CCCCNc1c(NCCCCCN(O)C(=O)CCC(=O)NCCCCCN(O)C(=O)CCC(=O)NCCCCCN(O)C(C)=O)c(=O)c1=O)C(=O)O)C(C)C` [zirconium-89 labelled], the tissue uptake was 0.27 %ID/g (ex vivo gamma counting; rat, spleen; subcutaneous, 3 nmol/kg, 72 h, together with: [89Zr]-labelled peptide).
For `COc1cc(Nc2ncc(F)c(Nc3ccc4c(n3)NC(=O)C(C)(C)O4)n2)cc(OC)c1OC`, the IC50 was greater than 10 µM (NAD-dependent protein deacetylase sirtuin-2 (SIRT2, Homo sapiens, UniProt Q8IXJ6)).
The median ratio of `O=C(c1ccc(Cl)cc1)N1CCN2C(=O)N(OC(=O)N3CCOc4ccccc43)C(=O)C2C1` (stereo not drawn) is reported as 1.01 (Presenilin-associated rhomboid-like protein, mitochondrial (PARL, Homo sapiens, UniProt Q9H300); enzyme activity, inhibitor, MS-based ABPP; SW-620 in situ; 10 µM, 2 h, 37 °C; baseline: compound over DMSO, lower = stronger inhibition).
For `O=C(O)C[C@H](NC(=O)[C@H](CC(=O)O)NC(=O)[C@H](CC(=O)O)NC(=O)[C@H](CC(=O)O)NC(=O)[C@H](CC(=O)O)NC(=O)[C@H](CC(=O)O)NC(=O)[C@H](CC(=O)O)NC(=O)[C@H](CC(=O)O)NC(=O)[C@H](CC(=O)O)NC(=O)[C@H](CC(=O)O)NC(=O)[C@H](CC(=O)O)NC(=O)[C@H](CCCCNC(=O)c1ccc(C(=O)NCCOCCOB2BBBBBB3BBBB3B2)cc1)NC(=O)CN1CCN(CC(=O)O)CCN(CC(=O)O)CCN(CC(=O)O)CC1)C(=O)O` [gallium-67 labelled], the tissue uptake was 0.43 %ID (gamma counting; mouse, ddY, male, 6 weeks old, stomach; intravenous, 37 kBq, 1 h).
For `CC[C@H](C)[C@@H]1NC(=O)[C@@H]2CCCN2C(=O)[C@H](CC(C)C)NC(=O)[C@H](CC(C)C)NC(=O)CNC(=O)[C@@H](NC(=O)[C@@H](NC(=O)[C@H](CC(=O)O)NC(=O)CNC(=O)[C@@H](NC(=O)[C@H](C)NC(=O)CNC(=O)[C@H](CCCCN)NC(=O)[C@H](CC(C)C)NC(=O)[C@H](CC(C)C)NC(=O)[C@H](CCCCN)NC(=O)CNC(=O)[C@@H](NC(=O)[C@@H](N)CC(C)C)C(C)C)C(C)C)C(C)C)CSSC[C@@H](C(=O)O)NC1=O`, “log2 fold change” read -1.58 (RNA-seq, item: Fgd3; mouse, traumatic brain injury model, frontal cortex and hippocampus; dose not given; baseline: TBI alone).
The tumour uptake of `Cc1ccccc1NC(=O)Nc1ccc(CC(=O)N[C@@H](CCCCNC(=O)/C=C/c2cccnc2)C(=O)N[C@@H](CCCC(=O)O)C(=O)NC2(C(=O)NCCOCCOCCOCCOCC(=O)N[C@@H](CCCCNC(=S)Nc3ccc(CCCN(CCN4CCN(CP(=O)(O)O)CCN(CP(=O)(O)O)CC4)CC(=O)O)cc3)C(N)=O)CCCCC2)cc1` [gallium-68 labelled] is reported as 15.2 ± 2.8 %ID/g (mice with B16-F10 tumour, tumour; intravenous, 4 h).
The tissue uptake of `CC(C)C[C@@H]1NC(=O)[C@H](CC(C)C)NC(=O)[C@H](Cc2c[nH]c3ccccc23)NC(=O)[C@H](CO)NC(=O)[C@H](Cc2c[nH]c3ccccc23)NC(=O)[C@@H]2CCCN2C(=O)[C@H](CC(C)C)NC(=O)[C@H](Cc2c[nH]cn2)NC(=O)[C@@H]2CCCN2C(=O)[C@H](CC(N)=O)NC(=O)[C@H](C)NC(=O)[C@H](Cc2ccc(O)cc2)NC(=O)[C@H](CS)NC(=O)[C@H](CCCCNC(=O)CN2CCN(CC(=O)O)CCN(CC(=O)O)CCN(CC(=O)O)CC2)NC1=O` [lutetium-177 labelled] is reported as 11.2 ± 1.77 %ID (Balb/c mouse, female, 4T1 tumour, kidney; intravenous, 3.7 MBq, 1 h).
`C[C@@H](O)[C@@H](CO)NC(=O)[C@@H](CCCNC(=N)N)NC(=O)[C@@H]1CCCN1C(=O)[C@@H]1CSSC[C@H](NC(=O)[C@H](Cc2ccccc2)NC(=O)CN2CCN(CC(=O)O)CCN(CC(=O)O)CCN(CC(=O)O)CC2)C(=O)N[C@@H](Cc2ccc(O)cc2)C(=O)N[C@@H](Cc2ccccc2)C(=O)N[C@@H](CCC(N)=O)C(=O)N[C@@H](CC(N)=O)C(=O)N1` [gallium-68 labelled] has a tissue uptake of 0.05 %ID/g (Wistar rat, liver; intravenous, 8 MBq, 120 min, group mean).
For `CCCCCCCCCCCCCCCC(=O)OCC(CSC[C@H](N)C(=O)N[C@@H](CO)C(=O)N[C@@H](CCCCN)C(=O)N[C@@H](CCCCN)C(=O)N[C@@H](CCCCN)C(=O)N[C@@H](CCCCN)C(=O)Nc1ccc(Cn2c(O)nc3c(N)nc(NCCCC)nc32)cc1)OC(=O)CCCCCCCCCCCCCCC` (stereo partly drawn), the viability was 92.5% (HFF-1; 1 µg/mL, 48 h).
The tumour uptake of `N=C(N)NCCC[C@@H]1NC(=O)[C@H](CCCCNC(=O)c2ccc(CNC34CNCCNCC(N)(CNCCNC3)CNCCNC4)cc2)NC(=O)[C@@H](Cc2ccc(O)cc2)NC(=O)[C@H](CC(=O)O)NC(=O)CNC1=O` [copper-64 labelled] is reported as 0.5 ± 0.08 %ID/g (microPET imaging; athymic nude mice, male, PC-3 xenograft, PC-3 tumour; intravenous, 0.2 nmol, 7.4 MBq, 24 h).
`CC(C)[C@@H]1NC(=O)[C@H](Cc2ccccc2)NC(=O)[C@@H]2NC(=O)[C@H](Cc3ccccc3)NC(=O)[C@@H]3CCCN3C(=O)CNC(=O)[C@H](Cc3ccccc3)NC(=O)[C@@H]3CNCCCC[C@@H](C(=O)O)NC(=O)[C@@H]4NC(=O)[C@H](CC(N)=O)NC(=O)CNC(=O)[C@H]([C@@H](O)C(=O)O)NC(=O)[C@H](CSC[C@@H](NC(=O)[C@H](CCC(N)=O)NC(=O)[C@H](CCCCNC(=O)c5ccc(NN)nc5)NC(=O)[C@@H](N)CS[C@H]4C)C(=O)N[C@@H](CS[C@H]2C)C(=O)N3)NC1=O` [technetium-99m labelled] gave a tissue uptake of 0.2 ± 0.02 %ID/g (rat, saline control, blood; intravenous, 2 h after tracer, tracer 2 h after reperfusion).

A few entries again:
The tumour uptake of `N=C(N)NCCC[C@@H]1NC(=O)[C@H](CCCCNC(=O)c2ccc(CNC34CNCCNCC(N)(CNCCNC3)CNCCNC4)cc2)NC(=O)[C@@H](Cc2ccc(O)cc2)NC(=O)[C@H](CC(=O)O)NC(=O)CNC1=O` [copper-64 labelled] is reported as 0.5 ± 0.08 %ID/g (microPET imaging; athymic nude mice, male, PC-3 xenograft, PC-3 tumour; intravenous, 0.2 nmol, 7.4 MBq, 24 h).
